# Measured values gathered from unrelated publications.
# Numbered parts are unrelated; each lists some results of a single study. Substitutions count along the parent as printed.

# Series 1
# Target: ABI1, truncated, D143A, DHFR fusion (Arabidopsis thaliana)
# Method: DHFR PCA, deep sequencing
# Medium: yeast
# Notes: methotrexate growth selection, single substitutions
# Added: (+)-ABA 58 µM
# Reference: wild-type fitted maximum
# Direction: higher = stronger binding
# Parent: PYL1, truncated, DHFR fusion (Arabidopsis thaliana); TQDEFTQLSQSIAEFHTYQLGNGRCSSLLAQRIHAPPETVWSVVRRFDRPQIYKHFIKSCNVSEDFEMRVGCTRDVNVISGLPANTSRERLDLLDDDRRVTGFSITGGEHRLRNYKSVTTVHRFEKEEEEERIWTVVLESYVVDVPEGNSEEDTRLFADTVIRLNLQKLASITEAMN
Substitution,relative binding score
D48Q,21.8%
I79G,45.2%
P37T,57.5%
I79C,89.1%
H110F,-4.03%
F66Y,81.4%
I172H,68%
H34K,91.5%
D96S,29.9%
S63C,85.1%
T73Q,87%
G71T,10.2%
H55C,93.5%
I57M,37.2%
E129Q,95.5%
S63V,81.3%
K168D,21.9%
R49K,88.3%
H16F,-12%
R45W,-24.3%
Q2R,84.4%
H34N,90.7%
D97G,86.2%
Q19P,95.2%
K54Q,10.2%

# Series 2
# Target: BATF3, bZIP domain (human)
# Method: DHFR protein complementation
# Medium: yeast
# Notes: single substitutions, most at no-binding floor
# Reference: wild-type JUN-FOS pair
# Direction: higher = stronger binding
# Parent: JUN, bZIP domain (human); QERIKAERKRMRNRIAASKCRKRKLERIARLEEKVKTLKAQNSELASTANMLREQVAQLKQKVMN; partner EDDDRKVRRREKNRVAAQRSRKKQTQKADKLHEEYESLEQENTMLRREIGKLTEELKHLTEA
Substitution,binding fitness
R30A,0.379 natural log
T48A,0.166 natural log
R30W,0.233 natural log
Q55I,0.0174 natural log
L52I,0.0789 natural log
R30E,0.314 natural log
L45C,-0.165 natural log
Q55W,-0.021 natural log
L45F,0.0204 natural log
L38P,-1.12 natural log
E44N,0.139 natural log
L45N,-0.447 natural log
N42W,-0.0982 natural log
Q55G,-0.0265 natural log

# Series 3
# Target: Histone acetyltransferase KAT6A, both winged helices, GST fusion (KAT6A, Homo sapiens, UniProt Q92794, residues 1-181)
# Method: protein binding microarray
# Form: double-stranded DNA, one strand shown
# Medium: in vitro
# Concentration: not given
# Notes: 8-mer, flanks averaged, mean of 2 arrays, mostly near background
# Reference: not given
# Direction: higher = stronger binding
# Target sequence (chain): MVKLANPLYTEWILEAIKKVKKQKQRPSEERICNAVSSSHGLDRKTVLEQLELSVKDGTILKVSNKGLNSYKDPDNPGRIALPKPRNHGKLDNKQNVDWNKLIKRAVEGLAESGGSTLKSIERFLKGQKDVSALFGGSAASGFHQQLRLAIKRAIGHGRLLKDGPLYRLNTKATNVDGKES
Strand,E-score
ATTGGGTG,-0.124
CGAACCGA,0.149
AGCCCAAC,-0.206
ACAGGAAC,-0.086
ATGGGCGG,0.0659
AGTTGGGA,-0.191
GCGCTCTA,0.25
CCACTTTA,-0.191
CAGGTCAA,-0.253
AAGTTTGA,-0.0322
AGTTTAAA,-0.0814
GTATTCAC,0.123
AACGCCTA,0.044
GCAGGGGA,-0.0323
ATGTCTTC,-0.0164
ATAGATCC,-0.0539
GTGTTAGA,-0.12
CCCATTAA,-0.127
CTGCAAGA,0.0788
TCAGTTCA,-0.068
CCATGGAC,-0.00611
ACATACGA,-0.015
CATAGGCG,0.12
CCCATGAC,-0.113
CCCTATAA,-0.176

# Series 4
# Target: Ras GTPase-activating protein-binding protein 1, RRM domain (G3BP1, Homo sapiens, UniProt Q13283)
# Sequence of UniProt Q13283 (whole entry, looked up): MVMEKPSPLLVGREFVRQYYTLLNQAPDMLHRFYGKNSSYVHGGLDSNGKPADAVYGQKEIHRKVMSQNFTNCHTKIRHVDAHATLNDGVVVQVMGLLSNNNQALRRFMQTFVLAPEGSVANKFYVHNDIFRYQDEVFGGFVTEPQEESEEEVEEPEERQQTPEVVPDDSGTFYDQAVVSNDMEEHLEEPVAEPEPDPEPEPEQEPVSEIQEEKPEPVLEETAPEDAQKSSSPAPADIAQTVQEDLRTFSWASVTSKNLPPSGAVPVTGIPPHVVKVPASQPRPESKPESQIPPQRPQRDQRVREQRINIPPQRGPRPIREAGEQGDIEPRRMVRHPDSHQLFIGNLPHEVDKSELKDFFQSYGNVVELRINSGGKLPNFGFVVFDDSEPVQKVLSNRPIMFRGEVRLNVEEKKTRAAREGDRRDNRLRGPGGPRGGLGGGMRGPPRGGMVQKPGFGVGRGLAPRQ
# Method: RNA Bind-n-Seq
# Form: RNA
# Medium: in vitro
# Concentration: 1 µM
# Notes: whole 134-nt RNA, ends assumed
# Added: 150 mM KCl
# Reference: input library
# Direction: higher = stronger binding
# Constant ends, left off below: GGGAGUUCUACAGUCCGACGAUC … UGGAAUUCUCGGGUGUCAAGG
Strand,log2 enrichment
UAACUUUAGAGGAGGAUCUGAUGGAUAUGGCAGUGGACGUGGAUUUGGGGAUGGCUAUAAUGGGUAUGGAGGAGGUCCUGGAGGUGGCAA,-0.262
CUCAAGUCCUGUGCUACACAUCGUAUGUACCGAAUCGGUUUGGUUUGGAAAGGAAAGUAUUAUGUUACGCCGUUCGGAUCUGCACUUCCA,-0.189
CAAGUCCUGUGCUACACAUCGUAUGUACCGAAUCGGUUUUUGGAAAGGAAAAAGGAAAGUAUUAUGUUACGCCGUUCGGAUCUGCACUUC,-0.199
UGGCCCUGGUGGCAUGCGGGGAGGAAGAGUUGGCCUCAUGGAUCGUGGUGGUCCCGGUGGAAUGUUCAGAGGUGGCCGUGGUGGAGACAG,0.853
UCAACAAGAGAUGUUCAAGAACUUUUGACACAAUAUACCAAGUUUGCACAGAUGGUAAAAAAGAUGGGAGGUAUCAAAGGACUUUUCAAA,-0.0644
UUGGGCUGCCCAUCACCGUGGCCCAUGUGGAUGGCCAAACCCACAUGUUAUUUGGCUCUGACCGGAUGGAGCUGCUGGCGCACCUGCUGG,-0.5
UCCUUUUUUUUUUUCUUUGAAUGUAUUUAUUUCUUGUAGUCUACUGGUGCUGUUGUGACGGAGAGCCAGACGUACAAAAACCGAGCUGGU,-1.49
UGUGCUACACAUCGUAUGUACCGAAUCGGGCCCCCCCGGGGCCCCCCCGGGGCCCCCCCGGGGAAAGUAUUAUGUUACGCCGUUCGGAUC,-0.738
AAGUCCUGUGCUACACAUCGUAUGUACCGAAUCGGGGUUUGGGGUUUGGGGUGGGGAAAGUAUUAUGUUACGCCGUUCGGAUCUGCACUU,0.961
AAGUCCUGUGCUACACAUCGUAUGUACCGAAUCGGGAAAAGGGAAAAGGAAAAGGGGAAAGUAUUAUGUUACGCCGUUCGGAUCUGCACU,0.104

# Series 5
# Target: CCNB2, cyclin fold, Cln2 fusion (human)
# Method: yeast growth competition, sequencing
# Medium: yeast
# Notes: weak parent motif
# Reference: not given
# Direction: higher = stronger binding
# Parent: SCAPER docking peptide (human); SNARRSLNFGGST
Substitution,normalised enrichment score
SNMRRSLNFGGST [A3M],0.778
SNARRSLNFGGHT [S12H],-0.0199
TNARRSLNFGGST [S1T],0.357
SNARRSLNFGWST [G11W],0.147
SNARRSDNFGGST [L7D],0.153
SNARRSLNFGGSE [T13E],-0.0886
SNARRSLNFGGTT [S12T],0.0649
SVARRSLNFGGST [N2V],0.305
SNARRSLCFGGST [N8C],-0.381
SNARQSLNFGGST [R5Q],0.153
SNARRSLNFGGVT [S12V],-0.112
SNARRCLNFGGST [S6C],0.00534
SNIRRSLNFGGST [A3I],0.562
SGARRSLNFGGST [N2G],0.246
SNQRRSLNFGGST [A3Q],-0.361
SAARRSLNFGGST [N2A],0.298
SNARRSLNSGGST [F9S],0.192
SNARRSLNFGGSF [T13F],0.421
SNARRSLNKGGST [F9K],0.293
SNAPRSLNFGGST [R4P],-0.288
SNARRSLWFGGST [N8W],0.181
SNARRSLNFWGST [G10W],0.625
SNARRSLNFGYST [G11Y],0.12
SNARNSLNFGGST [R5N],-0.515
SNARRSLNFGGSM [T13M],0.0602

# Excerpt of the above (series 5):
Substitution,normalised enrichment score
SNARRSLNFGWST [G11W],0.147
SNARRSDNFGGST [L7D],0.153
SNARRSLNFGGSE [T13E],-0.0886
SNARRSLNFGGTT [S12T],0.0649
SVARRSLNFGGST [N2V],0.305
SNARRSLCFGGST [N8C],-0.381
SNARQSLNFGGST [R5Q],0.153
SNARRSLNFGGVT [S12V],-0.112
SNARRCLNFGGST [S6C],0.00534
SNIRRSLNFGGST [A3I],0.562
SGARRSLNFGGST [N2G],0.246
SNQRRSLNFGGST [A3Q],-0.361
SAARRSLNFGGST [N2A],0.298
